Measured values of several laboratories.
Numbered parts are unrelated; each lists some results of a single study. Substitutions count along the parent as printed.
Chain of UniProt O15294 (whole entry, looked up): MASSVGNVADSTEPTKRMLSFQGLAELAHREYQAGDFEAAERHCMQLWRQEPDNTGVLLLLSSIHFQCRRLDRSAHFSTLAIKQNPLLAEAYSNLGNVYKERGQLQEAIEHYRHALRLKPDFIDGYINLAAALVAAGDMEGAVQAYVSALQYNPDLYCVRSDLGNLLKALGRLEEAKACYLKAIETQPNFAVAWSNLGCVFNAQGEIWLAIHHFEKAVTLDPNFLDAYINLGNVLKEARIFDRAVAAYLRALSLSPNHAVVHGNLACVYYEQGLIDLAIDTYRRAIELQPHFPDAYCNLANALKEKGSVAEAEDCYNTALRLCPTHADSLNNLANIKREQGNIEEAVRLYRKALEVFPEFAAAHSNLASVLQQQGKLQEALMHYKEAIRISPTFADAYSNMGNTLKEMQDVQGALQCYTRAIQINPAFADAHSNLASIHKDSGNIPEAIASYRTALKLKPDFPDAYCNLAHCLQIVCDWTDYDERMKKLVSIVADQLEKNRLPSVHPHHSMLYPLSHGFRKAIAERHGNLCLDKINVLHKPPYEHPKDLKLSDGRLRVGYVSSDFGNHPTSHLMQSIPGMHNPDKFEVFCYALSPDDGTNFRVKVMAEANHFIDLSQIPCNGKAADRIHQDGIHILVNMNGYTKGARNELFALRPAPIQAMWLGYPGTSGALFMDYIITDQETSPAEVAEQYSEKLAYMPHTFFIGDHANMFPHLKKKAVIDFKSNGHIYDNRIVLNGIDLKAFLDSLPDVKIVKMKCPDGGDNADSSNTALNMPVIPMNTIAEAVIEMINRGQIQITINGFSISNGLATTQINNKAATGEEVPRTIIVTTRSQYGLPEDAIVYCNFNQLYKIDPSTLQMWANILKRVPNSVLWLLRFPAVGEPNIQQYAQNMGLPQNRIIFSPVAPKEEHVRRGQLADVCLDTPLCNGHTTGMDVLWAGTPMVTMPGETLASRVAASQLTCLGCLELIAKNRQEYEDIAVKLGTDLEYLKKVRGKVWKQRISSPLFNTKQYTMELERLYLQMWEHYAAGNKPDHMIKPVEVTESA

Sample 1
Target: CCND3, cyclin fold, Cln2 fusion (human)
Method: yeast growth competition, sequencing
Sample: yeast
Notes: weak parent motif
Relative to: not given
Direction: higher = stronger binding
Starting sequence: PKN2 docking peptide (human); VSAVQKLDFSDTM
Substitution | normalised enrichment score
Q5R | 0.501
T12Q | 0.0807
M13I | 0.147
V4A | 0.117
T12R | 0.11
V4H | 0.102
S2M | 0.153
A3Y | 0.112

Sample 2
Target: Sox-I, HMG box (Salpingoeca helianthica)
Method: Spec-seq
Molecule type: double-stranded DNA, one strand shown
Sample: in vitro
Concentration: not given
Notes: whole probe, mean of replicates
Relative to: not given
Direction: lower = stronger binding
Constant ends, left off below: GAGTCGTCTCGTCAGCAC … CCGTAGAGCACTCAGGTC
Residues (chain): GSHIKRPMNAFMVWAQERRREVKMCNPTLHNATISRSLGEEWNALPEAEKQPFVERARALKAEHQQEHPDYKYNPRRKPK
Sequence | relative binding energy [ln ratio]
TTATGTT | -0.217
ACATGTT | -0.642
CCTAGTT | 0.0651
CCATGTT | -0.00722
CATCTCT | 0.685
CATATGC | 0.946
CATGCGC | 1.2
GTACGTT | 0.909

Sample 3
Target: Histone acetyltransferase KAT6A, both winged helices, GST fusion (KAT6A, Homo sapiens, UniProt Q92794, residues 1-181)
Method: protein binding microarray
Molecule type: double-stranded DNA, one strand shown
Sample: in vitro
Concentration: not given
Notes: 8-mer, flanks averaged, mean of 2 arrays, mostly near background
Relative to: not given
Direction: higher = stronger binding
Construct (chain): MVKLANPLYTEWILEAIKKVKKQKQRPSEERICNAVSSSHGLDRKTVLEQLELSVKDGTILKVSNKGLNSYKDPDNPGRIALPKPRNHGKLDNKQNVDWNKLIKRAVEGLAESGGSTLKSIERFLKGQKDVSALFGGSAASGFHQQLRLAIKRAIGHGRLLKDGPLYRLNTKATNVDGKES
Sequence | E-score
GGCCGACC | 0.182
GTAAAACA | -0.057
ACTAGGTA | -0.157
TAACGGCA | 0.275
CAGATTTA | -0.177
CGCCTGCA | -0.0295
ATCTGACC | 0.0112
GAAATATA | -0.0602

Mixed results
Sequence | target | test | system | conditions | how to read | measurement | result
HLTMGHSRTDDSRNH | UDP-N-acetylglucosamine--peptide N-acetylglucosaminyltransferase 110 kDa subunit (OGT, Homo sapiens, UniProt O15294) | binding, phage display NGS | peptide | panning round 2 | relative to: input library | minimum log2 enrichment ratio | 2.58

Repeated from above (sample 3):
Sequence | E-score
CAGATTTA | -0.177
